# Experimental data collected from several papers.
# Protocols differ between the studies behind these lines.
# Target: Testis-specific serine/threonine-protein kinase 1 (TSSK1B, Homo sapiens, UniProt Q9BXA7)
# Sequence (Q9BXA7 1-367, as in one of the studies): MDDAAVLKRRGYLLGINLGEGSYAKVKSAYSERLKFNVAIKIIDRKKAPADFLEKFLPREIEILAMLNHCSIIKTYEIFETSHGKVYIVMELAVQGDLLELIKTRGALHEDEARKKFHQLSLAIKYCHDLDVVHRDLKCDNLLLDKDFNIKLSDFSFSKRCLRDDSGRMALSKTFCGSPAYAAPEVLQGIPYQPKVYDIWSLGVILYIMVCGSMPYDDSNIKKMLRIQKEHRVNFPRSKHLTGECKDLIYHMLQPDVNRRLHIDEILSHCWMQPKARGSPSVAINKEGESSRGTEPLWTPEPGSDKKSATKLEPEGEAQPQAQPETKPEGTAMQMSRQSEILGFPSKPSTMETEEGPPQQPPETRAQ
Structure (SMILES),test,setting,how to read,measurement,result
CN(/N=C/c1ccccc1C(=O)O)c1nc(-c2ccccc2Cl)cs1,"enzyme activity, inhibitor",1 µM,,inhibition,-4.08%
C[C@H](NCc1ccc(-c2ccc(C(F)(F)F)cc2)cc1)C(N)=O,"cell-free assay, competition with immobilised ligand",1 µM,,inhibition,0%
Nc1ccc(/C=C/C(=O)N2CCc3c(oc4c(-c5ccc(F)cc5)cc(-c5ccc(C(=O)N6CCC(F)(F)CC6)cn5)cc34)C2)cn1,"binding, competition with immobilised ligand",1 µM,,remaining binding,100%
CS(C)(=O)=Nc1ccc(-c2ccc(-c3nc4cc(O[C@@H]5CO[C@H]6[C@@H]5OC[C@H]6O)[nH]c4cc3F)cc2)cc1,"enzyme activity, inhibitor",10 µM,,inhibition,9%
O=C(O)c1ccccc1/C=N/Nc1nc(-c2ccccc2Cl)cs1,"enzyme activity, inhibitor",1 µM,,inhibition,-7.39%
CCOC(=O)[C@@H]1Cc2c(cc([N+](=O)[O-])cc2[N+](=O)[O-])[C@H](O)[C@]12C(=O)Nc1ccc(Br)cc12,"binding, competition with immobilised ligand",0.1 µM,,remaining binding,82%
O=C1NC(=O)c2c1c1cc(F)c[n+]3c1c1c2c2cc(O)ccc2[n]1[Ru-4]312([N]=C=S)[S+]3CC[S+]1CC[S+]2CC3 (centres unmarked),enzyme activity,"100 nM, human enzyme, with: 10 µM ATP",baseline: untreated,remaining activity,11%
CC(C)[C@H]1NC(=O)C[C@H]2/C=C/CCSSC[C@@H](NC1=O)C(=O)N[C@H](Cc1cccc3ccccc13)C(=O)NCC(=O)O2,"enzyme activity, inhibitor",10 µM,,inhibition,3.7%

# A few entries again:
Structure (SMILES),test,setting,how to read,measurement,result
O=C1NC(=O)c2c1c1cc(F)c[n+]3c1c1c2c2cc(O)ccc2[n]1[Ru-4]312([N]=C=S)[S+]3CC[S+]1CC[S+]2CC3 (centres unmarked),enzyme activity,"100 nM, human enzyme, with: 10 µM ATP",baseline: untreated,remaining activity,11%
